# Measurements pooled from the literature.
# The chains behind the UniProt entries cited, without tags or fusion partners. Residues count along the entry.
# UniProt P26045, 646-901 limits assumed: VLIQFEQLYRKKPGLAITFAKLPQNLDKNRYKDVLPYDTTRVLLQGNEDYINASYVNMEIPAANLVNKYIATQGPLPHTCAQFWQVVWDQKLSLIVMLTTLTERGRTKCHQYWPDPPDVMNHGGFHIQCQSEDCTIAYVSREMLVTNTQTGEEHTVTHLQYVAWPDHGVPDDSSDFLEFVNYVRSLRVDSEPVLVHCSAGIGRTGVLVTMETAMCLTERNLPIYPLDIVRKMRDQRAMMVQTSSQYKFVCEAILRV
# UniProt Q9Y6W6, 321-464 limits assumed: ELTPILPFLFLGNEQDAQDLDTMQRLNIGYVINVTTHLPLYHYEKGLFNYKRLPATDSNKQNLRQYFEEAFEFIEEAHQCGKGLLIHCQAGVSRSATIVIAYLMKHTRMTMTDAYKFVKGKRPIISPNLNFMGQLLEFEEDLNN
# UniProt Q14790, 214-479 D374A/D384A/C409S/G418A/C433S limits assumed: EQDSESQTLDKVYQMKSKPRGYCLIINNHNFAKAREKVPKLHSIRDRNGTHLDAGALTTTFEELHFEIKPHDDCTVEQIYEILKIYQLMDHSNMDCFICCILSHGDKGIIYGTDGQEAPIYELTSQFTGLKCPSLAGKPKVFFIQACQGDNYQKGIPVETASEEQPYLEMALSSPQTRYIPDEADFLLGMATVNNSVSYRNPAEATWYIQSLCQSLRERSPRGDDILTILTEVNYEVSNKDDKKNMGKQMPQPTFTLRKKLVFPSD
# Numbered parts are unrelated; each lists some results of a single study. ± marks the error that the study gave.

# Block 1 — organism: Saccharomyces cerevisiae; read-out: cell growth; technique: doubling time; strain: SEC14 -136 allele; notes: Sec14 reduced ~7-fold
SMILES,IC50 [µM]
O=C(c1ccc(Cl)c([N+](=O)[O-])c1)N1CCN(c2ccccc2)CC1,24.1 ± 5.3
O=C(c1ccccc1Cl)N1CCN(c2ccc(F)cc2)CC1,> 200
O=C(c1cccc(Cl)c1)N1CCN(c2ccc(F)cc2)CC1,> 200
O=C(c1ccc(Cl)c([N+](=O)[O-])c1)N1CCN(Cc2ccccc2)CC1,> 200
O=C(c1ccc(F)cc1)N1CCN(c2ccccc2)CC1,> 200

# Mixed results
# PTPN3: Tyrosine-protein phosphatase non-receptor type 3 (PTPN3, Homo sapiens, UniProt P26045)
Compound,tested on,test,test system,setting,how to read,measurement,result
CC(=O)N[C@@H](Cc1c[nH]cn1)C(=O)N[C@@H](CC(=O)O)C(=O)NCC(=O)N[C@@H](CC(C)C)C(=O)N[C@@H](Cc1cc(=O)oc2cc(OP(=O)(O)O)ccc12)C(=O)N[C@@H](CCC(N)=O)C(=O)NCC(=O)N[C@@H](CC(C)C)C(=O)N[C@@H](CO)C(=O)N[C@H](C(=O)N[C@@H](C)C(=O)N[C@H](C(=O)N[C@@H](CCCCN)C(=O)N[C@@H](CC(=O)O)C(=O)N[C@H](C(=O)N[C@@H](Cc1ccc(OP(=O)(O)O)cc1)C(=O)N[C@@H](CC(=O)O)C(=O)N[C@@H](C)C(=O)N[C@@H](CC(C)C)C(=O)N[C@@H](Cc1c[nH]cn1)C(N)=O)[C@@H](C)O)[C@@H](C)O)[C@@H](C)O,PTPN3,"peptide hydrolysis, substrate",,"pH 6.0, 37 °C, TCR zeta-chain ITAM peptide",,Km,14.4 µM
CN(C)S(=O)(=O)c1ccc(NCCCCN2CCC(Nc3nc4ccccc4n3Cc3ccc(F)cc3)CC2)c2nonc12,,,hERG-HEK293 cell membrane,"1 µM, 20 min, Tris-HCl buffer",,emission maximum,550 nm
CC(=O)N[C@@H](Cc1c[nH]cn1)C(=O)N[C@H](C(=O)NCC(=O)N[C@@H](Cc1ccccc1)C(=O)N[C@@H](CC(C)C)C(=O)N[C@H](C(=O)N[C@@H](CCC(=O)O)C(=O)N[C@@H](Cc1cc(=O)oc2cc(OP(=O)(O)O)ccc12)C(=O)N[C@H](C(=O)N[C@@H](C)C(=O)N[C@H](C(=O)N[C@@H](CCCNC(=N)N)C(=O)N[C@@H](Cc1c[nH]c2ccccc12)C(N)=O)[C@@H](C)O)C(C)C)[C@@H](C)OP(=O)(O)O)[C@@H](C)O,"Dual specificity protein phosphatase 10 (Homo sapiens, UniProt Q9Y6W6)","peptide hydrolysis, substrate",,"pH 6.0, 37 °C, 50 nM enzyme, added: ERK activation-loop peptide",,Km,25.8 µM
O=C(c1ccc(N2CCOCC2)cc1)N1CCC[C@@H](N(C(=O)CCl)c2ccccc2)C1,"Caspase-8 (CASP8, Homo sapiens, UniProt Q14790, C409S/C433S/D374A/D384A/G418A)",competitive gel-based ABPP,,,baseline: G418A mutant over procaspase-8,apparent IC50 ratio,10 fold
CN(C)S(=O)(=O)c1ccc(NCCN2CCC(Nc3nc4ccccc4n3Cc3ccc(F)cc3)CC2)c2nonc12,,,,,,emission wavelength,581 nm
CC(=O)N[C@@H](Cc1c[nH]cn1)C(=O)N[C@@H](CC(=O)O)C(=O)NCC(=O)N[C@@H](CC(C)C)C(=O)N[C@@H](Cc1ccc(OP(=O)(O)O)cc1)C(=O)N[C@@H](CCC(N)=O)C(=O)NCC(=O)N[C@@H](CC(C)C)C(=O)N[C@@H](CO)C(=O)N[C@H](C(=O)N[C@@H](C)C(=O)N[C@H](C(=O)N[C@@H](CCCCN)C(=O)N[C@@H](CC(=O)O)C(=O)N[C@H](C(=O)N[C@@H](Cc1cc(=O)oc2cc(OP(=O)(O)O)ccc12)C(=O)N[C@@H](CC(=O)O)C(=O)N[C@@H](C)C(=O)N[C@@H](CC(C)C)C(=O)N[C@@H](Cc1c[nH]cn1)C(N)=O)[C@@H](C)O)[C@@H](C)O)[C@@H](C)O,PTPN3,"peptide hydrolysis, substrate",,"pH 6.0, 37 °C, TCR zeta-chain ITAM peptide",,Km,19.1 µM

# A few entries again (mixed results):
Compound,tested on,test,test system,setting,how to read,measurement,result
CN(C)S(=O)(=O)c1ccc(NCCCCN2CCC(Nc3nc4ccccc4n3Cc3ccc(F)cc3)CC2)c2nonc12,,,hERG-HEK293 cell membrane,"1 µM, 20 min, Tris-HCl buffer",,emission maximum,550 nm
